Assay results collected from several papers.
Protocols differ between the studies behind these lines.

`CC(C)C[C@H](NC(=O)[C@H](CCc1ccccc1)NC(=O)CN1CCOCC1)C(=O)N[C@@H](Cc1ccccc1)C(=O)N[C@@H](CC(C)C)C(=O)[C@@]1(C)CO1`: remaining compound “not detected” (human liver microsomes; 60 min).
For `Cc1cc2ccccc2n1CCNC(=O)c1ccc(N2CCCCC2)cc1`, the remaining compound was greater than 7% (mouse liver microsomes; 60 min).
With `CSc1nccc(C(=O)N[C@@H](CCC(=O)O)C(=O)N[C@@H](Cc2ccc3ccccc3c2)C(=O)N[C@@H](CC(C)C)C(=O)NC2CC2c2ccccc2)n1` (stereo partly shown) the remaining compound was 100% (pooled human plasma; 120 min, 37 °C).
`CN1CCN(C(=O)[C@H](CCCN[C@@H]2C[C@H]2c2ccc(F)cc2)NC(=O)c2ccc(-n3ccnn3)cc2)CC1` has a remaining compound of 100% (aqueous buffer; 0 days, 37 °C).
With `N#C[C@@]12C[C@@H]1[C@@H](n1cnc3c(N[C@@H](C4CCC4)C4CC4)nc(I)nc31)[C@H](O)[C@@H]2O` the remaining compound was 100% (plasma stability; rat plasma; 120 min).
With `N#Cc1ccc(Nc2nc(N)cc(Oc3c(F)cc(-c4ccc(C#N)cc4)cc3F)n2)cc1` the remaining compound was 100% (human plasma; 1 µM, 0.00 h, pH 7.4, 37 °C).
`Cn1cncc1-c1c(F)cncc1NC(=O)c1c(N)nn2cc(F)cnc12` has a remaining compound of 111% (human EDTA plasma; 4000 ng/mL, 6 months, -80 °C).
The remaining compound of `Cc1cc(Oc2ncccc2CN2CCN(c3ncccc3C(F)(F)F)CC2)ccc1-c1c(C)c(=O)[nH]c(=O)n1C` is reported as greater than 90% (metabolic stability; rat liver S9 fraction; 2 µM, 0.6667 h, pH 7.4).
The remaining compound of `CC[N+]1(C)CCN(c2ccc(NC(=O)c3cccc(C)n3)cc2)CC1` is reported as 98.1% (pooled BALB/c mouse plasma; 1 µM, 0.5 h).
For `CC[C@H](C)[C@@H]([C@@H](CC(=O)N1CCC[C@H]1[C@H](OC)[C@@H](C)C(=O)N[C@@H](Cc1ccccc1)C(=O)NCCCO)OC)N(C)C(=O)[C@@H](NC(=O)[C@H](C(C)C)N(C)C)C(C)C`, the remaining compound was 80.5% (human whole blood; 1 µM, 60 min).
For `C[C@H](CCC(=O)N[C@@H](CCC(=O)O[C@H]1C[C@H](n2cc(F)c(=O)[nH]c2=O)O[C@@H]1CO)C(=O)O)[C@H]1CC[C@H]2[C@@H]3[C@H](O)C[C@@H]4C[C@H](O)CC[C@]4(C)[C@H]3CC[C@]12C`, the remaining compound was 6.8% (rat liver S9; 5 µM, 1 h, 37 °C, together with: 1 mM NADPH).
`O=C(Oc1coc(CSc2ncccn2)cc1=O)c1ccc([N+](=O)[O-])cc1` gave a remaining compound of less than 1% (mouse plasma; 1 h).
With `CCOc1ccc2ccc(=O)oc2c1` the remaining compound was 106% (human liver microsomes; 1 µM, 60 min, pH 7.4, together with: without cofactors).
`COc1ccc(-c2c(-c3ccc(C#N)c(F)c3)nc(N3CCC(N)CC3)n(C)c2=O)cc1F` gave a remaining compound of 98% (aqueous buffer; 4 days, 37 °C).
`N#Cc1ccccc1-c1cc(NCCCN2CCCCC2)c2ccccc2n1` gave a remaining compound of 15.4% (human liver microsomes; 1 h).
For `C=CC(=O)Nc1cccc(-n2nc3c(=O)[nH]nc(N)c3c2-c2oc3ccc(C)cc3c2C)c1`, the remaining compound was 65.8% (BALB/c nude mouse whole blood; 1 µM, 1 h, 37 °C).
The remaining compound of `O=C(O)c1ccc(-c2cc(NCCCN3CCCCC3)c3ccccc3n2)cc1` is reported as 100% (human liver microsomes; 1 h).
With `CC1(C)OB(c2ccccc2/C=N/NC(=O)c2ccncc2)OC1(C)C` the remaining compound was 85% (LC-UV; DMEM cell medium; 100 µM, 24 h, without H2O2).
The remaining compound of `C=CC(=O)N1CCC(C(=O)N(C)CC(=O)N2CCN(c3nc(-c4cnc(N)nc4C(F)F)nc(N4CCOCC4)n3)CC2)CC1` is reported as 86.9% (microsomes, rat liver, male, Sprague-Dawley; 1 µM, 60 min, 0.5 mg/mL microsomal protein, together with: NADPH).
